Experimental data from different studies.
Compare with care: the assays were run in different laboratories. “And” joins repeats or separate records; there may be more than shown. Numbers after ± are the reported error.
AVPR1A: Vasopressin V1a receptor (AVPR1A, Homo sapiens, UniProt P37288)
UniProt P37288, sequence (whole entry, looked up): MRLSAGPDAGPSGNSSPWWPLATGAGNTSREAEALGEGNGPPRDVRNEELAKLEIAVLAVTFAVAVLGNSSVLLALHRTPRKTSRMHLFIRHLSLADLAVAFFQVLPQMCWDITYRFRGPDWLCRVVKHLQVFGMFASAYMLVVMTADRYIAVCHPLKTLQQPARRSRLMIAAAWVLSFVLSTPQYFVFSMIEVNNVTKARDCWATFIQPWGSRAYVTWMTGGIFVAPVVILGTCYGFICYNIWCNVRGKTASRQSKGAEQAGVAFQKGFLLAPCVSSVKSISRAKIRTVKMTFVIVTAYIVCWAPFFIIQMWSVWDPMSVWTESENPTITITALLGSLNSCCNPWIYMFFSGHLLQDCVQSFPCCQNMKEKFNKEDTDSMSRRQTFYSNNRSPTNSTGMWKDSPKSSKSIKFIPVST
lasR: Transcriptional activator protein LasR (lasR, Pseudomonas aeruginosa, UniProt P25084)
Uncharacterized hydrolase SAUSA300_2518: Uncharacterized hydrolase SAUSA300_2518 (Staphylococcus aureus, UniProt Q2FDS6)
KEAP1: Kelch-like ECH-associated protein 1 (KEAP1, Homo sapiens, UniProt Q14145)
UniProt Q14145, sequence (whole entry, looked up): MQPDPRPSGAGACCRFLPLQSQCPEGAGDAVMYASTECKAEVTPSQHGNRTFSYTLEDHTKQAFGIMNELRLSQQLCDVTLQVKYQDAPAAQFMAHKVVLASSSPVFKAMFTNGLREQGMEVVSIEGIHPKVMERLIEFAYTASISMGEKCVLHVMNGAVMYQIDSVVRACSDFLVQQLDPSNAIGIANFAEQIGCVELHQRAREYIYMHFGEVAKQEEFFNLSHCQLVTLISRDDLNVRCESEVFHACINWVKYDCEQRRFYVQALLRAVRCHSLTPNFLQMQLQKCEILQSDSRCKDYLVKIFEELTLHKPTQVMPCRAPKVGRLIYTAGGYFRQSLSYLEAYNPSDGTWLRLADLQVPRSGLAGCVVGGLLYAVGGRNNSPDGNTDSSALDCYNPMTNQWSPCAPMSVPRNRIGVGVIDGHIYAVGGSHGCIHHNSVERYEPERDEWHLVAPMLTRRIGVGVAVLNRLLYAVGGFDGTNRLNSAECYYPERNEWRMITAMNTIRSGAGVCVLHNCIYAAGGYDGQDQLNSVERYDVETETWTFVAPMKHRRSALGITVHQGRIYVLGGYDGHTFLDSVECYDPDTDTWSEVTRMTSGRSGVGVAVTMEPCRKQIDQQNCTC
sdiA: Regulatory protein SdiA (sdiA, Escherichia coli, UniProt P07026)
UniProt P07026, sequence (whole entry, looked up): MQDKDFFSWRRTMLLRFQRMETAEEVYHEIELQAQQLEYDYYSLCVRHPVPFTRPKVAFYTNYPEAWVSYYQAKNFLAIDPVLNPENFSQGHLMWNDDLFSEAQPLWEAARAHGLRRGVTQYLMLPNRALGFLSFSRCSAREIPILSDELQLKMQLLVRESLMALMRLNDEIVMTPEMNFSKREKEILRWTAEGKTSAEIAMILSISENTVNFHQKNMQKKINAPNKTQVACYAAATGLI
Oprm1: Mu-type opioid receptor (Oprm1, Rattus norvegicus, UniProt P33535)
UniProt P33535, sequence (whole entry, looked up): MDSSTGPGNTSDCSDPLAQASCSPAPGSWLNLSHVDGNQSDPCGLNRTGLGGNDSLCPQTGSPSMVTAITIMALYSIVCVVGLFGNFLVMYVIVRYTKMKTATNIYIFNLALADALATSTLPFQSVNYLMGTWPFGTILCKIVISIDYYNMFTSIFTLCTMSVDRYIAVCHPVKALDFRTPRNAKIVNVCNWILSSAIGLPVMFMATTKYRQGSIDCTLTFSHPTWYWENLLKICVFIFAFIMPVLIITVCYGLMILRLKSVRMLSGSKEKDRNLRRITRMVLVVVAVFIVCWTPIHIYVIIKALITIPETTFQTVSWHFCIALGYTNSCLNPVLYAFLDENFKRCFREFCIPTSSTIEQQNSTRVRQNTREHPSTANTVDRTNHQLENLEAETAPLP
UniProt Q9ULW8, sequence (whole entry, looked up): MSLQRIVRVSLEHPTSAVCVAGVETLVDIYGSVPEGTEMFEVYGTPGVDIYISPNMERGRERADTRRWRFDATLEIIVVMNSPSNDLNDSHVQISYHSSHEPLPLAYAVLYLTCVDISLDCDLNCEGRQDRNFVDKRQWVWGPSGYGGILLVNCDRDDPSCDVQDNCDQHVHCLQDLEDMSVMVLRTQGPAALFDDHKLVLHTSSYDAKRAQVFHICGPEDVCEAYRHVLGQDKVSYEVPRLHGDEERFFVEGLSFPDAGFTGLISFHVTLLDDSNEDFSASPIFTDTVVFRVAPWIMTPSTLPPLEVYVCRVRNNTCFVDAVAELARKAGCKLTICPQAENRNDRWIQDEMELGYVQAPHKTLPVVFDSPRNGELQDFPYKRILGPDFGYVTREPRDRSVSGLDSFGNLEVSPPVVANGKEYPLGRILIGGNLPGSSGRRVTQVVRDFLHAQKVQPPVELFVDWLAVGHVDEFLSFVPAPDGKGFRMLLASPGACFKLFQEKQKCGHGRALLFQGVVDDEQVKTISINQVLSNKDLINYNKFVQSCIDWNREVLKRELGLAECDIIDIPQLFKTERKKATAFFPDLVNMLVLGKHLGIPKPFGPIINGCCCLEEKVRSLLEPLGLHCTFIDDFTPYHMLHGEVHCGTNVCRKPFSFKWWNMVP
UniProt Q91V12, sequence (whole entry, looked up): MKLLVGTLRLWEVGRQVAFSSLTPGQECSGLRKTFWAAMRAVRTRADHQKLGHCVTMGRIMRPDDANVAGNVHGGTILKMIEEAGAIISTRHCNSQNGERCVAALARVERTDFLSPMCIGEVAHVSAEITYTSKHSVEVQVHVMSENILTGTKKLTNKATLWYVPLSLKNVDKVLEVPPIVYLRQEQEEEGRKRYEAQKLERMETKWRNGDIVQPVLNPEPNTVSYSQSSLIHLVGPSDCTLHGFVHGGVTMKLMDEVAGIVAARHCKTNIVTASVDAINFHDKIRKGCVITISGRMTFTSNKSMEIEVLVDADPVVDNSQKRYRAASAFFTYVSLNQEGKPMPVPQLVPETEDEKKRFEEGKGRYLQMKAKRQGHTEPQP
UniProt P21709, sequence (whole entry, looked up): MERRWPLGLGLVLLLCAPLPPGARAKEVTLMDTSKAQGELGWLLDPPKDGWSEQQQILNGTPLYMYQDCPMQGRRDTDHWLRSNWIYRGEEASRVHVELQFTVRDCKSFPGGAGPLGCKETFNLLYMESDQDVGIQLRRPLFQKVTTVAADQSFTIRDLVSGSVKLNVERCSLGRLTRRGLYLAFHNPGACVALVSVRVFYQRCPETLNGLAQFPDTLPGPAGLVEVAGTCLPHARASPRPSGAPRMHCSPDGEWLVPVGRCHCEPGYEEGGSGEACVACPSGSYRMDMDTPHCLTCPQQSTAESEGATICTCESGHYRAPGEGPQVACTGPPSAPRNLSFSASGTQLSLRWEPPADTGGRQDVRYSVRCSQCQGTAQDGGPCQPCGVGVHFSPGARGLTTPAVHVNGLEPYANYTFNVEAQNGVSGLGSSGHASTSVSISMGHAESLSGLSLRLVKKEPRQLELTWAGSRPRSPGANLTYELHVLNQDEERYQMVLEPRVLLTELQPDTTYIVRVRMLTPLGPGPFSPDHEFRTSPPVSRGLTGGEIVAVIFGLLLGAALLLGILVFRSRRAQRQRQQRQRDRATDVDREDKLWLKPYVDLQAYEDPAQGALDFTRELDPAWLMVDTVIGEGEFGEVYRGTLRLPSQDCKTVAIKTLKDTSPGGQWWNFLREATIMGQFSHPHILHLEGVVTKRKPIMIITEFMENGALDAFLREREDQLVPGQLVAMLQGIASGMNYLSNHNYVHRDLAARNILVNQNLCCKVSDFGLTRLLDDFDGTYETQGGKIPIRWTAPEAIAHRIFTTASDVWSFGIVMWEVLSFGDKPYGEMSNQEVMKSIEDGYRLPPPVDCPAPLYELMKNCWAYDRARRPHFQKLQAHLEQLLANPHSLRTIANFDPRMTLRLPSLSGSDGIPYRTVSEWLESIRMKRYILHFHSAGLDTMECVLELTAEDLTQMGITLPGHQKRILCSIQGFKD
UniProt P22455, sequence (whole entry, unmodified, looked up): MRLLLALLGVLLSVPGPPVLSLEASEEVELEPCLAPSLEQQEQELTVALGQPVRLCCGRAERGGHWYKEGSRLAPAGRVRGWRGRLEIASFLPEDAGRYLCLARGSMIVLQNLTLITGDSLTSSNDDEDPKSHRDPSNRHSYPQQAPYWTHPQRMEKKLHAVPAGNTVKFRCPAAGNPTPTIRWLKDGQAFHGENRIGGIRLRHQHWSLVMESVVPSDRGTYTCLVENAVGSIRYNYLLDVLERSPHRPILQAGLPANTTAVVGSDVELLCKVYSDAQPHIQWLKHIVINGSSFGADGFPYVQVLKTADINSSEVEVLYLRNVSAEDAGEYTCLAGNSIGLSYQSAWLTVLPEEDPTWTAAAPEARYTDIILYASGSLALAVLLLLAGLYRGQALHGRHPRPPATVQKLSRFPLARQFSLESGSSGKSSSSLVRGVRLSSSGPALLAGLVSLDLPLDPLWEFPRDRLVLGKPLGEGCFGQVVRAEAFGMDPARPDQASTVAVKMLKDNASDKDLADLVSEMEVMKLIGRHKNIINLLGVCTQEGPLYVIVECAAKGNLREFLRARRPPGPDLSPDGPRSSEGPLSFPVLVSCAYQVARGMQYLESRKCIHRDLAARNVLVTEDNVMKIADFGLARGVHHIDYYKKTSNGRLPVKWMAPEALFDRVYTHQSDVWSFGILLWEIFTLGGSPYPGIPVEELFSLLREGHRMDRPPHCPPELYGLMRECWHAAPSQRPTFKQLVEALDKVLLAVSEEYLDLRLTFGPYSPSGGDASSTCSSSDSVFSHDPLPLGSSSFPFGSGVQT
UniProt P0A988, sequence (whole entry, unmodified, looked up): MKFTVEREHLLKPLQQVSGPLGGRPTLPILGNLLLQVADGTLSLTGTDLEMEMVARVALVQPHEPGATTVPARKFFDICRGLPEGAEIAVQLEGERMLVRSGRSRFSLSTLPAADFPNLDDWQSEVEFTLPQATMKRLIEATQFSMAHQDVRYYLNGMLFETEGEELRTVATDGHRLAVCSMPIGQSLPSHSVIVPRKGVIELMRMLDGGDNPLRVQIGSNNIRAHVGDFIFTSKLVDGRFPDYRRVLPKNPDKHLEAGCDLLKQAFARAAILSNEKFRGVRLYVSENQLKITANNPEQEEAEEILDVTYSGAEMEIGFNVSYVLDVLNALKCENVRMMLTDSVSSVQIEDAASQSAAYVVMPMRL

CC(C)(C)C(=O)OCOP(=O)(OCOC(=O)C(C)(C)C)C1CCCN(O)C1=O (stereo not drawn)  CC50 (RXF 393): > 100 µM
CCNC(=S)NN=Cc1c2ccccc2cc2ccccc12.Cc1ccc(C(C)C)cc1.[Cl-].[Cl-].[Ru+2]  ΔG° (Albumin (ALB, Homo sapiens, UniProt P02768); binding, fluorescence titration; human serum albumin; 301 K): -6.88 kcal/mol
CC[C@@H]1C(=O)N(C)c2cnc(Nc3ccc(C(=O)NCCCC[C@H](NC(=O)[C@@H](NC(=O)[C@H](CO)NC(=O)[C@H](Cc4cncn4CCCCCCCCc4ccccc4)NC(=O)[C@H](CC(C)C)NC(=O)[C@@H]4CCCN4C(C)=O)[C@@H](C)CP(=O)(O)O)C(N)=O)cc3OC)nc2N1C1CCCC1  recovery A-B (Caco-2; 10 µM, 2 h): 65.2%
CCc1nnc(-c2c(OC)cc(-c3cnc4cc(-c5cnn(C)c5)ccn34)cc2OC)o1  remaining binding (AVPR1A; agonist radioligand, radioligand binding; 10 µM, SafetyScreen44 V1a mean; lower = stronger displacement): 97.1%
O=C(Nc1ccccc1NC(=O)c1cccc(Cl)c1)c1cccc(Cl)c1  agonist activity (lasR; reporter gene, agonist; Pseudomonas aeruginosa PAO-JP2; 100 µM, plasI-LVAgfp reporter; relative to: OdDHL at same concentration): 0%
Cc1ccc(OS(=O)(=O)F)c(C(=O)Nc2ccncc2)c1  remaining activity (Uncharacterized hydrolase SAUSA300_2518; enzyme activity, inhibitor, fluorogenic substrate; 0.01 µM): 91.2% and 95.1% and 92%
CC(C)[C@@H]1NC(=O)[C@H](CC(N)=O)NC(=O)CNC(=O)[C@H](CC(N)=O)NC(=O)[C@H](C)NC(=O)[C@H](CC(=O)O)NC(=O)[C@H]([C@@H](C)O)NC(=O)[C@H](CCC(=O)O)NC(=O)CNC(=O)[C@H]([C@@H](C)O)NC(=O)[C@H](CCC(=O)O)NC(=O)[C@H](CCC(=O)O)NC(=O)[C@H](CC(=O)O)NC1=O  fluorescence polarization (KEAP1; Keap1-Nrf2 binding, inhibitor, competitive FP; 100 µM, 30 min, added: Nrf2 peptide probe; lower = stronger inhibition): 0.111 a.u. and 0.03 a.u.
Cc1cc(C(=O)Nc2nc3cccc(C)c3n2[C@H]2CCCCN(C(=O)/C=C/CN(C)C)C2)ccn1  EC50 fold shift (Trypanosoma brucei; cell growth, Alamar Blue; 2T1 overexpressing Tb927.11.4470; relative to: parental 2T1): 1.04 fold and 0.7 fold
CC[C@H](C)[C@H](NC(=O)CCNC(=S)Nc1ccc2c(c1)C(=O)OC21c2ccc(O)cc2Oc2cc(O)ccc21)C(=O)N[C@@H](CCC(N)=O)C(=O)N[C@@H](CC(=O)O)C(=O)N[C@@H](CC(C)C)C(=O)N[C@@H](CCCNC(=N)N)C(=O)N[C@@H](CCCNC(=N)N)C(=O)N[C@@H](CCCNC(=N)N)C(=O)N[C@@H](Cc1ccccc1)C(=O)N[C@@H](Cc1ccccc1)C(=O)N[C@@H](CC(C)C)C(=O)N[C@@H](Cc1c[nH]cn1)C(=O)N[C@@H](Cc1c[nH]cn1)C(=O)N[C@@H](CC(C)C)C(=O)N[C@H](C(=O)N[C@@H](C)C(=O)N[C@@H](CCC(=O)O)C(=O)N[C@H](CC(=O)N[C@@H](Cc1c[nH]cn1)C(=O)N[C@H](C(=O)N[C@@H](C)C(=O)N[C@H](CNC(=O)C[C@@H](N)Cc1ccc(O)cc1)C(N)=O)[C@@H](C)O)Cc1ccc2ccccc2c1)[C@@H](C)CC  relative binding affinity (Parathyroid hormone/parathyroid hormone-related peptide receptor, extracellular domain (PTH1R, Homo sapiens, UniProt Q03431); fluorescence polarization; isolated ECD; concentration not given; relative to: native segment): ~3 fold
CC(=O)N[C@@H](CCC(N)=O)C(=O)N[C@@H](CC1CCCCC1)C(=O)N[C@@H](CNC(=O)CCl)C(=O)N[C@@H](CC(C)C)C(=O)N[C@@H](Cc1ccccc1)C(=O)O  ΔG (Beta sliding clamp (Escherichia coli, UniProt P0A988, H175G); isothermal titration calorimetry; 25 °C): -8.3 kcal/mol
O=NC1=C(c2cccc([N+](=O)[O-])c2)Nc2ccccc2S1  ΔTm (Tumor susceptibility gene 101 protein (Homo sapiens, UniProt Q99816); thermal stability; 800 µM): 4.7 °C
N#Cc1cccc(CC(=O)N[C@H]2CCOC2=O)c1  Emax (sdiA): 106%
C/C(=N\OCCCN1CCCCC1)c1ccc(C(F)(F)F)cc1  activation (AVPR1A; agonist, IP-One; 10 µM): -0.38%
C[C@H](NCc1ccc(-c2ccc(C(F)(F)F)cc2)cc1)C(N)=O  inhibition (Cathepsin G (CTSG, Homo sapiens, UniProt P08311); enzyme activity; 1 µM, added: 20.0 µM Suc-Ala-Ala-Pro-Phe-AMC): 0%
O=C1NC(=O)c2c1c1cc(F)c[n+]3c1c1c2c2cc(O)ccc2[n]1[Ru-4]312([N]=C=S)[S+]3CC[S+]1CC[S+]2CC3 (stereo not drawn)  remaining activity (Testis-specific serine/threonine-protein kinase 2 (TSSK2, Homo sapiens, UniProt Q96PF2); enzyme activity; 100 nM, human enzyme, added: 10 µM ATP; relative to: untreated): 61%
CN(C)CCCSC(=S)N1CCN(C(=O)/C=C/c2coc3ccccc3c2=O)CC1  MST response (Nucleoprotein (N, Tomato spotted wilt virus, UniProt P25999, R94A); binding, microscale thermophoresis; 1.953 µM; dose series): 842 a.u.
CCn1nc(Cl)c2c1-c1cnc(N)c(c1)O[C@H](C)c1cc(F)ccc1-c1nn(C)cc1C2  selectivity ratio (Ephrin type-A receptor 1 (EPHA1, Homo sapiens, UniProt P21709); kinase activity, inhibitor; relative to: IC50 EPHA1 over IC50 ALK): 225 fold
N=C(N)NCCC[C@@H]1NC(=O)[C@H](CCCCNC(=O)CCC(NC(=S)Nc2ccc(CC3CN(CC(=O)O)CCN(CC(=O)O)CCN(CC(=O)O)CCN3CC(=O)O)cc2)C(=O)NCCCC[C@@H]2NC(=O)[C@@H](Cc3ccc(O)cc3)NC(=O)[C@H](CC(=O)O)NC(=O)CNC(=O)[C@H](CCCNC(=N)N)NC2=O)NC(=O)[C@@H](Cc2ccc(O)cc2)NC(=O)[C@H](CC(=O)O)NC(=O)CNC1=O (stereo partly drawn) [scandium-44 labelled]  tissue uptake (PET imaging ROI; female athymic nude mice, U-87 MG xenograft, kidney; intravenous, 4 h, added: cRGD 50 mg/kg blocking): 0.21 ± 0.05 %ID/g
O=S(=O)(F)c1cccc2c1OCC2  remaining activity (Uncharacterized hydrolase SAUSA300_2518; enzyme activity, inhibitor, fluorogenic substrate; 5 µM): 120% and 115%
CS(C)(=O)=Nc1ccc(-c2ccc(-c3nc4cc(O[C@@H]5CO[C@H]6[C@@H]5OC[C@H]6O)[nH]c4cc3F)cc2)cc1  inhibition (Receptor-type tyrosine-protein kinase FLT3 (FLT3, Homo sapiens, UniProt P36888, D835Y); enzyme activity, inhibitor; 10 µM): -33%
C#CCCCCOc1ccc2c(c1)CCCN2C(=O)CCl  reactivity ratio (Dual specificity mitogen-activated protein kinase kinase 7 (MAP2K7, Homo sapiens, UniProt O14733); mass spectrometry profiling; H460 cell lysate; 100 µM over 10 µM, UniProt O14733; relative to: high over low concentration): 1.47
O=C1NC2(CC2)COc2ncc(F)cc2[C@H]2COCCN2c2ccn3ncc1c3n2  organ-to-body weight ratio (Sprague-Dawley rat, male, brain; oral, 20 mg/kg/day, 4 weeks dosing, end of recovery): 0.458 ± 0.04%
CC(C)CC(O)(CC(C)C)c1cn(C(=O)N2CCCC2)nn1  median SILAC activity ratio (Cytosolic acyl coenzyme A thioester hydrolase (Acot7, Mus musculus, UniProt Q91V12); probe labelling, inhibitor, competitive ABPP-SILAC, measured: Acot7; mouse T cells; concentration not given, 4 h, protein level; relative to: treated over DMSO cells, lower = stronger inhibition): 1.15
CC(C)[C@H]1NC(=O)C[C@H]2/C=C/CCSSC[C@@H](NC1=O)C(=O)N[C@H](Cc1cccc3ccccc13)C(=O)NCC(=O)O2  inhibition (Fibroblast growth factor receptor 4 (FGFR4, Homo sapiens, UniProt P22455, V550L); enzyme activity, inhibitor; 10 µM): 2.5%
CCCCCCCCCCCCn1nnc(CC(=O)O)n1  agonist activity (lasR; reporter gene, agonist; Pseudomonas aeruginosa PAO-JP2; 100 µM, plasI-LVAgfp reporter; relative to: OdDHL at same concentration): 0%
CC[C@@H](C)[C@@H]1CN([C@H](Cc2ccc3ccccc3c2)CN2CCC[C@H]2CN2CCNC[C@@H]2Cc2ccc3ccccc3c2)CCN1CCc1ccc(Cl)c(Cl)c1  remaining binding (Oprm1; radioligand binding; rat brain membranes; 500 nM, pH 7.5, 25 °C, added: 0.87 nM [3H]DAMGO): 104 ± 7.93%
Cc1cc(-c2ccc3ccccc3c2)nnc1NCCN1CCN(C)CC1  activity (Cholecystokinin receptor type A (CCKAR, Homo sapiens, UniProt P32238); antagonist; 10000 nM; relative to: control): 0%
O=C(O)C(Cl)Cl.OCCN(CCO)CCO  herbicidal inhibition (Eclipta prostrata; 15 mg/mL, 21 days, post-emergence, greenhouse): -30%
N[C@H](C(=O)N1CCCC1)C1CCN(c2nccc3c(-c4ncc(Cl)cc4Cl)cccc23)CC1  kcat (Protein-arginine deiminase type-3 (PADI3, Homo sapiens, UniProt Q9ULW8); enzyme activity; 0.006291 µM, added: Ca2+ 0.25 mM): 0.105 s⁻¹ and 0.113 s⁻¹
CC[C@H](C)[C@H](NC(=O)[C@H](CO)NC(=O)[C@H](Cc1ccc(O)cc1)NC(=O)[C@H](Cc1ccc(O)cc1)NC(=O)[C@H](CC(N)=O)NC(=O)CNC(=O)[C@H](CO)NC(=O)[C@H](Cc1ccc(O)cc1)NC(=O)[C@H](CO)NC(=O)[C@H](CO)NC(=O)[C@H](CC(N)=O)NC(=O)COCCOCCNC(=O)CN1CCN(CC(=O)O)CCN(CC(=O)O)CCN(CC(=O)O)CC1)C(=O)N[C@@H](CC(C)C)C(N)=O [copper-64 labelled]  maximum metastasis uptake (dynamic PET; tamoxifen-induced PDAC mouse model, metastases; 7.5 min, CLDN4-expressing tumours): 27.5 %IA/cc
O=C(CCCc1ccccc1)NC1CCOC1=O (stereo not drawn)  agonist activity (lasR; reporter gene, agonist; Pseudomonas aeruginosa PAO-JP2; 100 µM, plasI-LVAgfp reporter; relative to: OdDHL at same concentration): 0%
O=C(N[C@@H]1c2ccccc2C[C@H]1N1CCCC1)c1ccc(-c2ccnc3[nH]ccc23)nc1  remaining binding (Ribosomal protein S6 kinase alpha-6, N-terminal kinase domain (RPS6KA6, Homo sapiens, UniProt Q9UK32); binding, competition with immobilised ligand; 3 µM): 19%
CN(C)[C@H]1C[C@@]23CC[C@@]4(O2)C(=CC[C@]2(C)[C@@H](c5ccc6ccncc6c5)CC[C@H]24)C=C3[C@@H](O)[C@@H]1O  inhibition (Phosphatidylinositol 4-kinase beta (PI4KB, Homo sapiens, UniProt Q9UBF8); ATP probe labelling, inhibitor, KiNativ profiling; 0.1 µM): -0.8%
COc1ccccc1-c1n[nH]c2nc(N[C@H]3CC[C@H](NS(=O)(=O)CC(C)C)CC3)ncc12  remaining binding (cyclin 9 (Leishmania donovani, UniProt A0A2D1QVA3); competitor, bead pull-down competition; Leishmania donovani extract; 0.016 µM; relative to: vehicle): 10%
Cc1cccc(CC(=O)N[C@H]2CCOC2=O)c1  Emax (sdiA): 88.8%
CCCCCCCCCC(=O)NC1CCCC1  antagonist activity (lasR; reporter gene, antagonist; Escherichia coli, JLD271 with LasR plasmid; concentration not given, added: OdDHL 2 nM): inactive
CCCC[C@H]1CNCCN1C[C@@H]1CCCN1C[C@H](CC1CCCCC1)N1CCN(CCC23CC4CC(CC(C4)C2)C3)[C@H]([C@@H](C)O)C1  remaining binding (Oprm1; radioligand binding; rat brain membranes; 500 nM, pH 7.5, 25 °C, added: 0.87 nM [3H]DAMGO): 103 ± 6.8%
CC(C)C[C@@H]1NC(=O)[C@H](C(C)C)NC(=O)[C@H](CCC(=O)O)NC(=O)CNC(=O)[C@H]([C@@H](C)O)NC(=O)[C@H](CCC(=O)O)NC(=O)[C@H](CCC(=O)O)NC(=O)[C@H](CC(=O)O)NC(=O)[C@H](C(C)C)NC(=O)[C@H]([C@@H](C)O)NC(=O)CNC(=O)[C@H](CC(=O)O)NC(=O)[C@@H]2CCCN2C1=O  fluorescence polarization (KEAP1; Keap1-Nrf2 binding, inhibitor, competitive FP; 0.0244 µM, 30 min, added: Nrf2 peptide probe; lower = stronger inhibition): 0.871 a.u. and 1.08 a.u.
CCOC(=O)[C@@H]1Cc2c(cc([N+](=O)[O-])cc2[N+](=O)[O-])[C@H](O)[C@]12C(=O)Nc1ccc(Br)cc12  remaining binding (Aurora kinase B (AURKB, Homo sapiens, UniProt Q96GD4); binding, competition with immobilised ligand; 0.1 µM): 83%
